Experimental data gathered from unrelated publications.
Protocols differ between the studies behind these lines.
Organism: Enterobacter cloacae

With CCCCCCCCCCCCCC(=O)N[C@@H]1CCNC(=O)[C@H](CC(=O)O)NC(=O)[C@H](C(C)C)NC(=O)[C@@H](Cc2ccc(O)cc2)NC(=O)[C@H](CCN)NC(=O)[C@H](CC(C)C)NC(=O)[C@@H](Cc2ccccc2)NC(=O)[C@H](CCN)NC(=O)[C@H](CC(C)C)NC(=O)[C@H](CCN)NC(=O)[C@H]([C@@H](C)O)NC1=O the MIC was greater than 64 µg/mL (broth microdilution; BNCC 185028).
For CC[P+](CC)(CC)[Au-][S][C@@H]1O[C@H](COC(C)=O)[C@@H](OC(C)=O)[C@H](OC(C)=O)[C@H]1NC(C)=O, the MIC was 47 µM (NCTC 13405).
For Cc1cc(N)c2cc(NC(=O)c3ccc4c(-c5ccccc5O)cccc4c3)ccc2n1, the MIC was greater than 100 µM (ATCC 13047).
The MIC of CC[C@H](C)[C@H](NC(=O)[C@H](CCCNC(=N)N)NC(=O)CNC(=O)[C@H](CC(C)C)NC(=O)[C@H](CC(C)C)NC(=O)[C@H](CCCCN)NC(=O)[C@H](Cc1ccccc1)NC(=O)[C@H](C)N)C(=O)N[C@H](C(=O)N[C@@H](Cc1c[nH]cn1)C(=O)N[C@@H](Cc1c[nH]cn1)C(=O)N[C@H](C(=O)NCC(=O)N[C@@H](CC(N)=O)C(=O)N[C@@H](Cc1ccccc1)C(=O)N[C@H](C(=O)N[C@@H](Cc1ccc(O)c(O)c1)C(=O)NCC(=O)N[C@@H](Cc1ccccc1)C(=O)N[C@@H](CO)C(=O)N[C@@H](Cc1c[nH]cn1)C(=O)N[C@H](C(=O)N[C@@H](Cc1ccccc1)C(N)=O)C(C)C)C(C)C)C(C)C)[C@@H](C)CC is reported as 8 µM (broth microdilution; AR 0136; pH 5.5).
Cc1cc(N)c2cc(NC(=O)c3ccc4cc(C5CC5)ccc4c3)ccc2n1 gave an MIC of greater than 100 µM (ATCC 13047).
For CC(C)Oc1ccc(B(O)O)c(F)n1, the MIC was 8 µg/mL (bacterial growth; AmpC-overproducing clinical isolate; cefotaxime alone).
For CC[C@H](C)[C@H](NC(=O)[C@H](CCCCN)NC(=O)CNC(=O)[C@H](CC(C)C)NC(=O)[C@H](CC(C)C)NC(=O)[C@H](Cc1c[nH]cn1)NC(=O)[C@H](Cc1ccccc1)NC(=O)[C@@H](N)C(C)C)C(=O)N[C@H](C(=O)N[C@@H](Cc1c[nH]cn1)C(=O)N[C@@H](Cc1c[nH]cn1)C(=O)N[C@H](C(=O)NCC(=O)N[C@@H](CC(N)=O)C(=O)N[C@@H](Cc1ccccc1)C(=O)N[C@H](C(=O)N[C@@H](Cc1ccc(O)c(O)c1)C(=O)NCC(=O)N[C@@H](Cc1ccccc1)C(=O)N[C@@H](CO)C(=O)N[C@@H](Cc1c[nH]cn1)C(=O)N[C@H](C(=O)N[C@@H](Cc1ccccc1)C(N)=O)C(C)C)C(C)C)C(C)C)[C@@H](C)CC, the MIC was greater than 128 µM (broth microdilution; AR 0136; pH 7.4).
With OB(O)c1cnn(-c2cccc(Cl)c2)c1 the MIC was 4 µg/mL (bacterial growth; AmpC-overproducing clinical isolate; cefotaxime alone).
For CCCCCCCCCCCCCC(=O)N[C@H](CCN)C(=O)N[C@H](C(=O)N[C@@H](CCN)C(=O)N[C@@H](CC(C)C)C(=O)N[C@@H](CCN)C(=O)N[C@H](Cc1ccccc1)C(=O)N[C@@H](CC(C)C)C(=O)N[C@@H](CCN)C(=O)N[C@H](Cc1ccc(O)cc1)C(=O)N[C@H](C(=O)N[C@@H](CC(=O)O)C(=O)O)C(C)C)[C@@H](C)O, the MIC was 4 µg/mL (broth microdilution; BNCC 185028).

Repeated from above:
Cc1cc(N)c2cc(NC(=O)c3ccc4cc(C5CC5)ccc4c3)ccc2n1 gave an MIC of greater than 100 µM (ATCC 13047).
